# Assay results pooled from the literature.
# Protocols differ between the studies behind these lines. Values joined by “and” are separate records of one study, mostly repeats; a detail may differ.
# PDGFRA: Platelet-derived growth factor receptor alpha (PDGFRA, Homo sapiens, UniProt P16234)
SMILES,target,assay,conditions,scale,measurement,value
COc1cc(OC)c(F)c(/C=C/c2cnc3ccn(S(=O)(=O)c4cn(CCF)cn4)c3n2)c1F,PDGFRA,,100 nM,,inhibition,0%
COc1c(OCCCN2CCOCC2)ccc2c1N=C(NC(=O)c1cnc(N)nc1)N1CCN=C21,PDGFRA,"kinase activity, inhibitor",1 µM,baseline: untreated control,remaining activity,97%
COc1ccc(NC(=O)Nc2ccc3c(c2)C(=O)N(C(C)CO)CC(C)C(CN(C)Cc2ccc4c(c2)OCO4)O3)cc1 (centres unmarked),PDGFRA,"kinase activity, KinaseProfiler","0.03 µM, species human",baseline: control,remaining activity,102%
COc1cc(-n2cc3cc(F)cc(C(N)=O)c3n2)cc(Cl)c1C1CC(O)(CCO)Cc2ccccc21 (centres unmarked),PDGFRA,"enzyme activity, inhibitor",10 µM,,inhibition,3.36%
NC(=O)C[C@H]1CCc2sc3ncnc(O[C@H]4CC[C@H](N5CCOCC5)CC4)c3c21,PDGFRA,"enzyme activity, inhibitor",10 µM,,inhibition,7%
CCN1CCN(Cc2ccc(C(=O)Nc3ccc(C)c(NCc4cnc5[nH]ccc5c4OC)c3)cc2C(F)(F)F)CC1,PDGFRA,"binding, competition with immobilised ligand",1 µM,,remaining binding,9%
O=C=[N][Ru-4]123([n]4c5ccc(O)cc5c5c6c(c7cc(F)c[n+]1c7c54)C(=O)NC6=O)[S+]1CC[S+]2CC[S+]3CC1 (centres unmarked),"Platelet-derived growth factor receptor alpha (PDGFRA, Homo sapiens, UniProt P16234, V561D)",enzyme activity,"100 nM, human enzyme, added: 10 µM ATP",baseline: untreated,remaining activity,65%
Cc1cccc(O[C@H]2CCC[C@@H](C(C)CNCc3ccncc3)C2)c1 (relative stereo),PDGFRA,"enzyme activity, inhibitor",10 µM,,inhibition,-3%
CN1CCN(Cc2ccc(-c3ccc(CO[C@H]4CCC[C@@H]4NC(=O)c4cc(-c5cnn(C)c5)cnc4N)cc3)cc2)CC1,PDGFRA,"enzyme activity, inhibitor",0.1 µM,,inhibition,3%
CC(=O)N1c2ccc(-c3ccc(CNC(=O)c4cn5cc(-c6cnc(N)nc6)nc(N6CCOCC6)c5n4)cc3)cc2CC[C@@H]1C,PDGFRA,KINOMEscan,10 µM,,remaining binding,95%
COc1c(Cl)cccc1Nc1c(-c2ccncc2C#C[C@@]2(C)CCCN2C(=O)/C=C/CN(C)C)[nH]c2c1C(=O)NCC2,PDGFRA,"cell-free assay, competition with immobilised ligand",3 µM,,remaining binding,97%
CN1CCN(c2ccc(Nc3ncc(Cl)c(Nc4ccccc4P(C)(C)=O)n3)cc2Br)CC1,PDGFRA,"enzyme activity, inhibitor",0.1 µM,,inhibition,63.4%
Nc1ncc(-c2cc(-c3cnn(CC(F)(F)F)c3)ncc2F)nc1C(=O)NC1CNCC(F)C1 (centres unmarked),PDGFRA,enzyme activity,1 µM,baseline: DMSO control,remaining activity,100%
CCn1cc(C(=O)O)c(=O)c2c(N)c(F)c(NC3CCCCC3)cc21,PDGFRA,kinase activity,"0.1 µM, added: ATP at Km",,inhibition,-1.7%
C=CC(=O)N1Cc2nc(-c3cc(-c4cc(Cl)cnc4Cl)c(F)cc3F)n(-c3ccncn3)c2C1,PDGFRA,"cell-free assay, inhibitor",1 µM,,inhibition,-1.8%
CNC(=O)c1cnc(Nc2ccncc2)nc1-c1ccc(C)cc1,PDGFRA,"cell-free assay, competition with immobilised ligand",10 µM,,remaining binding,26%
CN1CC[C@@H](COc2cnc(C#N)cc2-c2ccn3nc(NC(=O)C4CC4)cc3c2)C1,PDGFRA,"enzyme activity, inhibitor",1 µM,,inhibition,2%
Nc1ncc2c(n1)-c1c([nH]c3ccc(C4=CCOCC4)cc13)CCC2,PDGFRA,"binding, competition with immobilised ligand",1 µM,,remaining binding,100%
COc1ccc(O)cc1-c1c[nH]c2ncc(-c3cncc(C(=O)N(C)C)c3)cc12,PDGFRA,"binding, competition with immobilised ligand",0.2 µM,,inhibition,60.7%
COc1cc(Nc2nccc(-c3cnn4nc(OC)ccc34)n2)cc(C(F)(F)F)c1,PDGFRA,"binding, competition with immobilised ligand",1 µM,,remaining binding,92%
C=CC(=O)Nc1cccc(-c2cnc3[nH]cc(C(=O)NC(C)(C)C)c3n2)c1,PDGFRA,kinase activity,0.1 µM,,inhibition,25% and 20%
O=c1c(-c2ccc(Cl)c(CN3CCOCC3)c2)coc2cc(O)ccc12,PDGFRA,"enzyme activity, inhibitor",1 µM,,remaining activity,103%
CN1CCN(Cc2ccc(NC(=O)c3cccc(C#Cc4cnc(N)c5ncccc45)c3)cc2C(F)(F)F)CC1,PDGFRA,"cell-free assay, competition with immobilised ligand",50 nM,,remaining binding,3%

# Some of these lines once more:
SMILES,target,assay,conditions,scale,measurement,value
Nc1ncc(-c2cc(-c3cnn(CC(F)(F)F)c3)ncc2F)nc1C(=O)NC1CNCC(F)C1 (centres unmarked),PDGFRA,enzyme activity,1 µM,baseline: DMSO control,remaining activity,100%
